Experimental data gathered from unrelated publications.
Every numbered part comes from another study and shows a few of its results, in no order. Changes are numbered by the printed parent chain.

Study 1
Target: ABI1, truncated, D143A, DHFR fusion (Arabidopsis thaliana)
Technique: DHFR PCA, deep sequencing
Medium: yeast
Setting: methotrexate growth selection, single substitutions
Together with: (+)-ABA 0.11 µM
Reference: wild-type fitted maximum
Direction: higher = stronger binding
Starting sequence: PYL1, truncated, DHFR fusion (Arabidopsis thaliana); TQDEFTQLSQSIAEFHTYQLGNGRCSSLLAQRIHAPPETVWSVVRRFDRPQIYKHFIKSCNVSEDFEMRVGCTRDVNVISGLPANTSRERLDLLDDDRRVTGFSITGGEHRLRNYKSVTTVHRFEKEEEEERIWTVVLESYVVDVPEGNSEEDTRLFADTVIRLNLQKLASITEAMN; partner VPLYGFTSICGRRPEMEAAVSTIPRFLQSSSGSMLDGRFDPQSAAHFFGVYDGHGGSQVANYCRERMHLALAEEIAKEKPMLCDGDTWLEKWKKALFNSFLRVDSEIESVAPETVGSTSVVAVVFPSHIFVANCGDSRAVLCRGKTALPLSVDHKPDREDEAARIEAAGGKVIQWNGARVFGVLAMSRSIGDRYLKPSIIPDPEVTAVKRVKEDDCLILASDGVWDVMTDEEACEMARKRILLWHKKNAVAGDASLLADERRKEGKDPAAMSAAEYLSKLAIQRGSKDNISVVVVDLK
Substitution | relative binding score [%]
N22P | 59.4
A84C | 41.2
R90P | 0.233
R90S | 2.06
I172S | -1.15
S80N | 37.1
V76C | 4.72
S42V | -0.394
D97H | 26.3
N177L | 22.2

Study 2
Target: CCND1, cyclin fold, Cln2 fusion (human)
Technique: yeast growth competition, sequencing
Medium: yeast
Setting: weak parent motif
Reference: not given
Direction: higher = stronger binding
Starting sequence: SLBP docking peptide (human); ARYKRKLLINDFG
Substitution | normalised enrichment score
K4A | -0.16
G13A | -0.397
K4N | 0.12
G13T | -0.174
I9G | 0.0386
I9Y | 0.148
Y3C | -0.216
A1H | -0.153
R5T | -0.155
L7W | -0.476
K6F | -0.0469
L8F | 0.16
R2I | 0.358
Y3E | 0.32
F12K | -0.185
G13M | 0.265
N10P | 0.0378
G13W | 0.0514
Y3N | -0.129
L8V | 0.342
F12I | 0.0662
K4G | -0.229
L7E | -0.469
D11M | 1.35
D11V | 0.515

Study 3
Target: Prothrombin, mature alpha-thrombin (F2, Homo sapiens, UniProt P00734)
Technique: aptamer microarray, sandwich
Form: DNA with 2'F-ANA
Medium: in vitro
Concentration: 200 nM
Setting: whole 15-mer aptamer, many near background
Together with: Cy3 exosite-II aptamer, 400 nM
Direction: higher = stronger binding
Strand: GGTTGGTGTGGTTGG
Modification | mean fluorescence intensity [a.u.]
2'F-ANA at 4 6 13 15 | 164
2'F-ANA at 1 5 6 8 9 10 11 13 14 | 47
2'F-ANA at 1 2 3 4 5 7 9 11 12 13 15 | 67.2
2'F-ANA at 4 6 7 9 11 12 13 14 | 79
2'F-ANA at 2 4 6 7 8 9 11 13 | 200
2'F-ANA at 2 4 7 9 10 12 13 14 15 | 125
2'F-ANA at 4 5 9 11 14 | 56.1
2'F-ANA at 1 2 3 5 7 11 13 15 | 50.2
2'F-ANA at 2 4 6 7 8 9 13 14 15 | 82.3
2'F-ANA at 1 3 7 9 11 12 15 | 394
2'F-ANA at 3 6 9 12 15 | 1160
2'F-ANA at 2 5 6 7 9 10 11 13 14 15 | 48
2'F-ANA at 2 3 4 5 11 12 13 14 | 50.7
2'F-ANA at 3 7 12 13 15 | 1290
2'F-ANA at 2 3 7 8 9 11 12 13 14 15 | 434
2'F-ANA at 1 3 4 7 9 11 12 13 14 | 70.3
2'F-ANA at 1 5 7 8 9 10 12 13 14 15 | 46.4
2'F-ANA at 1 3 6 7 8 9 10 13 | 80.8
2'F-ANA at 5 8 10 11 12 13 14 | 57.4
2'F-ANA at 4 6 7 8 9 10 11 12 14 | 61
2'F-ANA at 2 4 5 6 8 10 13 14 15 | 46.8
2'F-ANA at 2 3 4 7 8 9 10 14 15 | 174
2'F-ANA at 3 4 6 7 12 13 | 747
2'F-ANA at 2 5 6 7 8 9 10 11 12 14 | 46.8
2'F-ANA at 3 7 8 9 10 11 12 14 | 465

Study 4
Target: Sal-like protein 4, full length isoform A (SALL4, Homo sapiens, UniProt Q9UJQ4, residues 1-1053)
Chain of UniProt Q9UJQ4 (whole entry, looked up): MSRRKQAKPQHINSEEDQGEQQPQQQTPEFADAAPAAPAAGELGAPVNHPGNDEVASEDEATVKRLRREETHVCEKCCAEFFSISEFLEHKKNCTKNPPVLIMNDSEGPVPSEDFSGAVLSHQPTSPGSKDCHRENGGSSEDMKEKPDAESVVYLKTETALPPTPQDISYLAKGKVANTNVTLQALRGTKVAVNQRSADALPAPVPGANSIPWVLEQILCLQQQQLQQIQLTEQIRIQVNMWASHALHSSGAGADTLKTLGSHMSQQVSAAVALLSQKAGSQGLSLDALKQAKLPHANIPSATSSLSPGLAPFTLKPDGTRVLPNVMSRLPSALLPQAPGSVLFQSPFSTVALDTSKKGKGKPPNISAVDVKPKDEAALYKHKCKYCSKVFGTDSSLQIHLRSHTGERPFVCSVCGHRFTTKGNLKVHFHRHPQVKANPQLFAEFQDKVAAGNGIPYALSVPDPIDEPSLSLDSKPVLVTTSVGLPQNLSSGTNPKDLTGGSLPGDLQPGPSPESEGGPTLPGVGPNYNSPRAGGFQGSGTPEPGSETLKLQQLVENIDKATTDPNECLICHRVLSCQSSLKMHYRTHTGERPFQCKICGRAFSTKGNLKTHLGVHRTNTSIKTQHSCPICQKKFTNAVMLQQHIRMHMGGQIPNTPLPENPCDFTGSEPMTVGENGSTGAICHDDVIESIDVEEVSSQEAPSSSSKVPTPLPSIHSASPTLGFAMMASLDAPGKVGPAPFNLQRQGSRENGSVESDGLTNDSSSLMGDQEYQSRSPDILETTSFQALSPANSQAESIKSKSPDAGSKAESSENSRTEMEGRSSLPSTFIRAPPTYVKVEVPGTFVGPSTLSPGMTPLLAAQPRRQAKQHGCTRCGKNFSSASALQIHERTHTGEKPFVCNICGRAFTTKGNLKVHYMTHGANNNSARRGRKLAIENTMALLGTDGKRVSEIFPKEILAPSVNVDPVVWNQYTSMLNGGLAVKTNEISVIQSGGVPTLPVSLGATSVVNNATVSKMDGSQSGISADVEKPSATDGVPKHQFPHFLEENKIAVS
Technique: universal PBM
Form: double-stranded DNA, one strand shown
Medium: in vitro
Concentration: 600 nM
Setting: 8-mer, flanks averaged, mean of replicates
Direction: higher = stronger binding
Strand | E-score
AGATCGGC | -0.273
CGTGGGGC | -0.362
AGCCTTTC | -0.0992
CTTTCTCC | -0.182
ACGCATGG | -0.111
ACCTTATC | 0.0858
CATCGTAC | 0.177
CGTGTTAG | -0.00142
ACTGTTAA | 0.179
GTAGTCAA | 0.107
AACCAGCC | -0.153
GGAGACTA | -0.0728
CTAAAGAC | 0.0724
CGCATCCA | -0.149
AAAAAACG | 0.176
GAAAGGTC | -0.0363
CGGAGACA | -0.127
CAGGTCGG | -0.309
ACTGGGCG | -0.286
ACTTGCGG | -0.223
TACAGCTA | -0.0355
GGTACTAC | 0.03
CACTTTTC | 0.109
CAAAGTCG | -0.134

Study 5
Target: JUND, bZIP domain (human)
Technique: DHFR protein complementation
Medium: yeast
Setting: single substitutions, most at no-binding floor
Reference: wild-type JUN-FOS pair
Direction: higher = stronger binding
Starting sequence: JUN, bZIP domain (human); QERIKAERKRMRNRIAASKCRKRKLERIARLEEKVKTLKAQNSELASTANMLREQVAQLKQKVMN
Substitution | binding fitness
I28H | -1.36 natural log
L45V | -1.41 natural log
R53Y | -1.3 natural log
L45N | -1.28 natural log
R53N | -1.24 natural log
N42D | -1.5 natural log
L45K | -1.35 natural log
L31Q | -1.31 natural log
N42V | -1.39 natural log
Q41G | -1.35 natural log
V35W | -1.29 natural log
A46P | -1.53 natural log
L45W | -1.36 natural log

Study 6
Target: RNA binding protein fox-1 homolog 2, RRM domain, GST-SBP tag (RBFOX2, Homo sapiens, UniProt O43251-10, residues 100-194)
Technique: RNA Bind-n-Seq
Form: RNA
Medium: in vitro
Concentration: 365 nM
Setting: natural RNA segment, single round, ends assumed
Reference: no-protein control
Direction: higher = stronger binding
Shared flanks, not repeated: GGGAGUUCUACAGUCCGACGAUC … UGGAAUUCUCGGGUGCCAA
Target sequence (chain): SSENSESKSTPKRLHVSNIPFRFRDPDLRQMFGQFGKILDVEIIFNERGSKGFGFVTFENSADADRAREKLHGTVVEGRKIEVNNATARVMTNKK
Strand | RBNS enrichment (R)
AGUUUUCUCCCAUUCCGUCGUCACCCGUGCCCCUCACCCACAAUCCCCUUGUUGGACACACUGCCUUUCUCCUCCUCCUUUGCCGCUGGCAAGAGCCAGUGCCUGACUGA | 0.529
CGCUGCCAGGGUGAUCAUUCAUCAGUUUCGGCCACUAGAGACAGAAAACUACACUGCUAAGCCCUGGACUUUGCCCAACCCCUUUCUAGGACCGUUUUCUCCCUCUCUCU | 0.248
ACCUUAAGAAGGCACAUAUAUAAUAGAGAUCAGGAAGAAAUGAAGAAUUCUAUUUUUGCUGAAUAUGCCAAAGAAUCAAAAGCCAUGGCUAUUAAGACAGAUGUGGAUGU | 0.272
CCGCUCCCUACGCAACAUACUUGAAUUCUUGAGUUCCCUUUGGGGUGAGAAAGGAUUUGAAACCAUAAAGUGUUUUAAAGAAAUGAACUCUUCAGAAACAGACUUCCUCC | 0.544
GUAGUCAAGUGUAACUAACUCCUAAGGGCAACCAUUUGUAUCUUAUAUAUCAGAAUUACUUUAUAGUUUGAAAGCACUUUGCACACAUUUCCUGUAUAUAAAGGAUGUAA | 1.68
AAGCAGGGGCAGGUGAGCCACCAUGGACUGCAUAGCAAGCCAGCCUUGAAUAUAGUGAGUCCAGUCUCAAAAGAAAAAAAAAGGUAAGUGAGGCUGGAGAAAUGGCUUAG | 1.06
UCAUCUCUCGGUACAAAGGAGUUACUAUCAUAUAAAGACUCAUCUGAAAGAAUUGUUAAUGAAACCUCAUUCUUUAUGUUUAUCUCAGUGUCUCUUUACAUGGAUAUUUU | 0.317
GCCAGCUCCCUCACAUGUACUUGGUCCAACUGUAGGUGACUGGUUAUCACAUCUUCACUGGCCCCUGUGGCCCUGCAUGUAGUAGGGGAGGCUUCAGUCAGCCCCUCACU | 1.2
ACAGAAGCCUGGCCCCAGAGACCUAAGACCUGUAUUGUGCAUUGUUUCCUAACUGCAUGUGAUAGACUUGGACAUUUGGAGAAUAUUUUGUACAUGAAUGAUUCAAAAUC | 48.7
AUUUUUAUUCAUGUGAAGUGUAUAUGAUUCUCUUGAGAUAAGGUUUUAAGCUAAAAUGUUACUCCCUGUUUUAGUUUCUGAACUCUGACAGAUUGACAGGGACUUUGCUG | 0.675
CUUUCUCGGUCUUUGUCUCUCUUUCUUCCUUUCCUUUCUAUUUCCCCCAGGGUCUCCUGUUAACCAGGCUGACUUCGAACUCACAACCUUUAAUUUCUAACCCUACCACA | 0.963
GCCUACGUGGUGUCUUCUUCCCAAUAGAGCCUGCAGCCAGCUGGGGUCCUGAGGGCAGAGGGACAAGCAGGGUCCUGGUGCUAUUUGCUCCUUACUGGGGAGGGGAGGGA | 0.571

Single results of other studies
Molecule | target | assay | system | setting | scale | endpoint | result
PhoQ, residues 284 288 289 292 302 303 SCKMEA | PhoP, residues 12 14 15 18 19 TTLRV (Escherichia coli, UniProt P23836) | Sort-seq, refers to: YFP reporter | E. coli | PhoQ-PhoP variant library, together with: 10 µM Mg2+ | reference: high Mg2+ state, higher = stronger signaling | fold induction | 3.63

A few entries again (study 4):
Strand | E-score
AGCCTTTC | -0.0992
CTTTCTCC | -0.182
ACGCATGG | -0.111
ACCTTATC | 0.0858
CATCGTAC | 0.177
CGTGTTAG | -0.00142
ACTGTTAA | 0.179
GTAGTCAA | 0.107
AACCAGCC | -0.153
GGAGACTA | -0.0728
CTAAAGAC | 0.0724
CGCATCCA | -0.149
AAAAAACG | 0.176
GAAAGGTC | -0.0363
CGGAGACA | -0.127
CAGGTCGG | -0.309
ACTGGGCG | -0.286
ACTTGCGG | -0.223
